# Measurements from different studies.
# Lines come from different studies, so protocols differ. ± marks the error that the study gave. Ends that are not written are not given here. * marks the point of attachment.
Substance,assay,system,setting,scale,measurement,value
COc1cccc2c1C(=O)c1c(O)c3c(c(O)c1C2=O)C[C@@](O)(C(=O)CO)C[C@@H]3O[C@H]1C[C@H](N)[C@H](O)[C@H](C)O1,,mice with solid Ehrlich carcinoma,"ip, 5 mg/kg",,tumour volume,112 ± 9.2 mm³
COc1cccc2c1C(=O)c1c(O)c3c(c(O)c1C2=O)C[C@@](O)(C(=O)CO)C[C@@H]3O[C@H]1C[C@H](N)[C@H](O)[C@H](C)O1,,"BALB/c nude mice, HCT-8/ADR xenograft","intravenous, 2 mg/kg every two days, 22 d",,tumour growth inhibition,71.8%
Palmitoyl-PCSTSSMA (N-palmitoyl; Palmitoyl = CCCCCCCCCCCCCCCC(=O)*),,"AsPC-1, male SCID mice, subcutaneous AsPC-1 xenograft","intratumoral, 500 µg/mouse/day, 3 weeks",,tumour weight,167 ± 29.5 mg
CC(=O)O[C@H]1C(=O)[C@@]2(C)[C@H]([C@H](OC(=O)c3ccccc3)[C@]3(O)C[C@H](OC(=O)[C@H](O)[C@@H](NC(=O)c4ccccc4)c4ccccc4)C(C)=C1C3(C)C)[C@]1(OC(C)=O)CO[C@@H]1C[C@@H]2O,,female NSG mice Hep3B xenograft,"iv, 24 mg/kg, 336 h, daily for 5 days",,tumour growth inhibition,79%
CC(=O)O[C@@]12CO[C@@H]1C[C@H](O)[C@@]1(C)C(=O)[C@H](O)C3=C(C)[C@@H](OC(=O)[C@H](O)[C@@H](NC(=O)OC(C)(C)C)c4ccccc4)C[C@@](O)([C@@H](OC(=O)c4ccccc4)[C@H]21)C3(C)C,,"mice, HCC70 xenograft","iv, 3.75 mg/kg",,tumour growth inhibition,24%
COc1cccc2c1C(=O)c1c(O)c3c(c(O)c1C2=O)C[C@@](O)(C(=O)CO)C[C@@H]3O[C@H]1C[C@H](N)[C@H](O)[C@H](C)O1,,mice bearing T47D xenografts,"5 mg/kg once weekly, 24 days after inoculation, treated 2 weeks",,tumour volume,45.3 ± 14.2 mm3
CCN(CC)c1ccc2nc3ccc(N=Nc4ccc(N(C)CCCC(=O)NCCCC[C@H](NC(=O)CNC(=O)[C@H](CCCNC(=N)N)NC(=O)[C@@H](NC(=O)CNC(=O)[C@H](CC(C)C)NC(=O)[C@@H]5CCCN5C(=O)CNC(=O)CCCCC[N+]5=C(C=CC=CC=C6N(CC)c7ccc8c(S(=O)(=O)[O-])cc(S(=O)(=O)O)cc8c7C6(C)C)C(C)(C)c6c5ccc5c(S(=O)(=O)[O-])cc(S(=O)(=O)O)cc65)C(C)C)C(=O)NCC(=O)NCC(=O)NCCOCCOCCOCCOCCOCCOCCOCCOCCOCCOCCOCCO)cc4)cc3[n+](-c3ccccc3)c2c1,NIR fluorescence imaging,nude mice SCC-7 tumour,"iv, 10 nmol, 2 h",baseline: muscle,tumour to background ratio,3.73 ± 0.31
CCN(CC)CCCC(C)Nc1ccnc2cc(Cl)ccc12 (stereo not shown),tumour weight,"nude mice, ECa-109 xenograft","intraperitoneal, 60 mg/kg every other day, 2 weeks, with: sulforaphane 5 mg/kg",,tumour growth inhibition,24.3%
COc1cccc2c1C(=O)c1c(O)c3c(c(O)c1C2=O)C[C@@](O)(C(=O)CO)C[C@@H]3O[C@H]1C[C@H](N)[C@H](O)[C@H](C)O1,,"mice, BT-474 xenograft","intraperitoneal, 1.5 mg/kg, week 5, after fourth treatment",baseline: pretreatment,tumour volume,106 ± 59.6%
CC(=O)O[C@@]12CO[C@@H]1C[C@H](O)[C@@]1(C)C(=O)[C@H](O)C3=C(C)[C@@H](OC(=O)[C@H](O)[C@@H](NC(=O)OC(C)(C)C)c4ccccc4)C[C@@](O)([C@@H](OC(=O)c4ccccc4)[C@H]21)C3(C)C,,mice bearing PC-3 xenografts,"5 mg/kg once weekly, 18 days after inoculation, treated 3 weeks",,tumour volume,141 ± 53.6 mm3
